Published values gathered from unrelated publications.
Lines come from different studies, so protocols differ. Several values in a cell are separate wells, animals, samples, runs or records. ± marks the error that the study gave.
LRP6 E1 domain: Low-density lipoprotein receptor-related protein 6, E1 domain (LRP6, Homo sapiens, UniProt O75581)
Chain of UniProt O75581 (whole entry, looked up): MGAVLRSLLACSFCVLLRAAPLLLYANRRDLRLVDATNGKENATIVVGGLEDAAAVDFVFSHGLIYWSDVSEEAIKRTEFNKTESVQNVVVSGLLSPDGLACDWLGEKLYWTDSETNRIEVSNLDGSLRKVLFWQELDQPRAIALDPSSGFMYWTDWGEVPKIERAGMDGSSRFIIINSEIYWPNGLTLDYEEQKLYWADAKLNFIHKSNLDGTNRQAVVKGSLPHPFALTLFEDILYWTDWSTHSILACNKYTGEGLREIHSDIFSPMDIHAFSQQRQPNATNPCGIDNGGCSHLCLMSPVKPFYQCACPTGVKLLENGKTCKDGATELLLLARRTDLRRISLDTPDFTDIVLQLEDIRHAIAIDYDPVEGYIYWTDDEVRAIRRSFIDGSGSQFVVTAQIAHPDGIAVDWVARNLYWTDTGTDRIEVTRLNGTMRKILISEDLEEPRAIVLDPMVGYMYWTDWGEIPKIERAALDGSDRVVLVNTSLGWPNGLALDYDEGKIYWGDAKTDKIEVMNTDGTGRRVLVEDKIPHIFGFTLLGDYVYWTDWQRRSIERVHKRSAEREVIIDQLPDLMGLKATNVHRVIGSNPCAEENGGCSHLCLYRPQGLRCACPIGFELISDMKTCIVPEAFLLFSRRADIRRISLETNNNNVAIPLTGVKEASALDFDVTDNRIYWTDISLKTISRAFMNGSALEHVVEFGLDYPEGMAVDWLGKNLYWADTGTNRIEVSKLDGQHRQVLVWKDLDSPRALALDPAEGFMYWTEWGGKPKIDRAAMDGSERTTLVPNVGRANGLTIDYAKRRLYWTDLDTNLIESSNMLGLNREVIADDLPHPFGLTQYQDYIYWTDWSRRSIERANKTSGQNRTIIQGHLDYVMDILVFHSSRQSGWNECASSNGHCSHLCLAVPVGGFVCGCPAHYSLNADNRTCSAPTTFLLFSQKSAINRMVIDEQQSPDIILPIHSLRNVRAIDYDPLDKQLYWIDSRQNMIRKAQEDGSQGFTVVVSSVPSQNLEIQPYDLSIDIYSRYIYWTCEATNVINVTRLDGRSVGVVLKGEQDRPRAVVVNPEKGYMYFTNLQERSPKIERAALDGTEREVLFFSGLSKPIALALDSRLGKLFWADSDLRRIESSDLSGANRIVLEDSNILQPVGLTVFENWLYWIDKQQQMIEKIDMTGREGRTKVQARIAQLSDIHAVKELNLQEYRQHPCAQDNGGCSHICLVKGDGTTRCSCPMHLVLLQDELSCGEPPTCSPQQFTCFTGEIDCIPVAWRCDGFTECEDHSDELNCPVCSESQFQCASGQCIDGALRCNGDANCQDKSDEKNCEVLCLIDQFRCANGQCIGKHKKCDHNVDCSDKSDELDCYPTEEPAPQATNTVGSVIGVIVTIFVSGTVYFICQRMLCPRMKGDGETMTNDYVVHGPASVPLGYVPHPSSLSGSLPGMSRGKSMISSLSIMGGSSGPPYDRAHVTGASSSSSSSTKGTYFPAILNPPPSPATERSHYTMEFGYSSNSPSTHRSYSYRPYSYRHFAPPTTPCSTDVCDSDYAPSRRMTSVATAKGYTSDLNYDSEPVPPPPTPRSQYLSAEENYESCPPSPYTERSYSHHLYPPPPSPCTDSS
YWHAZ: 14-3-3 protein zeta/delta (YWHAZ, Homo sapiens, UniProt P63104)
Chain of UniProt Q9H4M9 (whole entry, looked up): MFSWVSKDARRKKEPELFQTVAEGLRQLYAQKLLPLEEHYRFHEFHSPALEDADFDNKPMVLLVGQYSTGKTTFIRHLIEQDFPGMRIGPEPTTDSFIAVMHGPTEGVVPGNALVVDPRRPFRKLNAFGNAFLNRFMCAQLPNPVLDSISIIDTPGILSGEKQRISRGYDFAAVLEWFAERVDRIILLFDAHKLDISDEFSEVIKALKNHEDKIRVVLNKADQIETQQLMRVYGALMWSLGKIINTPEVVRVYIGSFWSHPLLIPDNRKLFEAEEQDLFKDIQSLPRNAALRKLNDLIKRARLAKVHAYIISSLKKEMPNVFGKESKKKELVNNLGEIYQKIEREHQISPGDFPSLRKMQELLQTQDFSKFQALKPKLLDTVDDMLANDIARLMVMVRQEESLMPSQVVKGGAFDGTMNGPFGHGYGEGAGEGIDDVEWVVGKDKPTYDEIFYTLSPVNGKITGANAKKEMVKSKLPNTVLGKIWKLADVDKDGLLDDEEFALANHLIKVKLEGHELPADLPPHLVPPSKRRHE
Chain of UniProt P63104 (whole entry, looked up): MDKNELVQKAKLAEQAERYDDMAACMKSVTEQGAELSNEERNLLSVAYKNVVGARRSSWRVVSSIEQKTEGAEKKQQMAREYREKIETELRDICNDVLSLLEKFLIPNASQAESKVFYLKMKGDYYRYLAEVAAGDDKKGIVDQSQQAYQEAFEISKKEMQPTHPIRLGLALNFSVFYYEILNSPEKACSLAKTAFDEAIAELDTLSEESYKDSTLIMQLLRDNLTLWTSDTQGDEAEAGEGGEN
Chain of UniProt Q9H7M9 (whole entry, looked up): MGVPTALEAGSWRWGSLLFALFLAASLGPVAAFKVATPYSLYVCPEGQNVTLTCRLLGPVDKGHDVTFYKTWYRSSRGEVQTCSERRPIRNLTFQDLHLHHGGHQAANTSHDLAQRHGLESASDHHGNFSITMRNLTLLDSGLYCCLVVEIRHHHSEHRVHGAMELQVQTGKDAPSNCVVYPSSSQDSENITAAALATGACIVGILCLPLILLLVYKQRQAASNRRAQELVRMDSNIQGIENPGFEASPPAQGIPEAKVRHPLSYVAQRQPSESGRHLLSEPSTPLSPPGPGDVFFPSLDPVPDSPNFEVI
Chain of UniProt P31947 (whole entry, looked up): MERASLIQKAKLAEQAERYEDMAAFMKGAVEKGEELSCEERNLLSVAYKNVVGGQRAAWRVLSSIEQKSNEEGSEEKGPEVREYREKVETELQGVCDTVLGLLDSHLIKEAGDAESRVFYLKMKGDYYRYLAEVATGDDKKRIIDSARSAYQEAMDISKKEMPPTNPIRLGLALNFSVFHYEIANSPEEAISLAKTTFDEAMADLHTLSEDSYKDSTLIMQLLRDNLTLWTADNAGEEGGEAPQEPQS
Chain of UniProt Q9BY67 (whole entry, looked up): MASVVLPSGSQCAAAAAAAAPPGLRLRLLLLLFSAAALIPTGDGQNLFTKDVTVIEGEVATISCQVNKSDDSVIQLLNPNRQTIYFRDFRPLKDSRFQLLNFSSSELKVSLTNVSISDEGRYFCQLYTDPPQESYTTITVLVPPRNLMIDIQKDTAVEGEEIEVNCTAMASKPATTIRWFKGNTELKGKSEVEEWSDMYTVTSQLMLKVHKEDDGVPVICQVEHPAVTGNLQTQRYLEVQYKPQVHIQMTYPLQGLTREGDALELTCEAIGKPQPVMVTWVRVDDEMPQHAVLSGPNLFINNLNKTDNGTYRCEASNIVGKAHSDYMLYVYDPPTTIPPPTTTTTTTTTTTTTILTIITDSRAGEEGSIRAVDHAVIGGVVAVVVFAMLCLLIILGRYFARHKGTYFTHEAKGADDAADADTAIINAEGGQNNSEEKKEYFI
Chain of UniProt P53350 (whole entry, looked up): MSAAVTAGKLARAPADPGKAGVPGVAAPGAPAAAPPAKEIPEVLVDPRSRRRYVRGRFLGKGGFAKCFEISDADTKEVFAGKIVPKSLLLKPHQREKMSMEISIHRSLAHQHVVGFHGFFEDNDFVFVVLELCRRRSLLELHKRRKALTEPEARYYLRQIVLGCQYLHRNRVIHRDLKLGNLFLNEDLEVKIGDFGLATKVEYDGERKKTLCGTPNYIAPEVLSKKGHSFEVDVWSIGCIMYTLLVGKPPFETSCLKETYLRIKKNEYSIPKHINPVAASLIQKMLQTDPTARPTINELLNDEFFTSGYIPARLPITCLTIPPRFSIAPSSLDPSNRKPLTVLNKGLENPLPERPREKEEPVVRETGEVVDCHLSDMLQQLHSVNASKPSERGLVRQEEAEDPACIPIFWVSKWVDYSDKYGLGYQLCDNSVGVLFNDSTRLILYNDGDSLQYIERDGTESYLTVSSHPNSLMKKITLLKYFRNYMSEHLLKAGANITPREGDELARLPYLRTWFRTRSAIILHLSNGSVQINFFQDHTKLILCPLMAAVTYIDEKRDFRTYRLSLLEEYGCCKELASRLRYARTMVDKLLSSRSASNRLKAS
Chain of UniProt Q14145 (whole entry, looked up): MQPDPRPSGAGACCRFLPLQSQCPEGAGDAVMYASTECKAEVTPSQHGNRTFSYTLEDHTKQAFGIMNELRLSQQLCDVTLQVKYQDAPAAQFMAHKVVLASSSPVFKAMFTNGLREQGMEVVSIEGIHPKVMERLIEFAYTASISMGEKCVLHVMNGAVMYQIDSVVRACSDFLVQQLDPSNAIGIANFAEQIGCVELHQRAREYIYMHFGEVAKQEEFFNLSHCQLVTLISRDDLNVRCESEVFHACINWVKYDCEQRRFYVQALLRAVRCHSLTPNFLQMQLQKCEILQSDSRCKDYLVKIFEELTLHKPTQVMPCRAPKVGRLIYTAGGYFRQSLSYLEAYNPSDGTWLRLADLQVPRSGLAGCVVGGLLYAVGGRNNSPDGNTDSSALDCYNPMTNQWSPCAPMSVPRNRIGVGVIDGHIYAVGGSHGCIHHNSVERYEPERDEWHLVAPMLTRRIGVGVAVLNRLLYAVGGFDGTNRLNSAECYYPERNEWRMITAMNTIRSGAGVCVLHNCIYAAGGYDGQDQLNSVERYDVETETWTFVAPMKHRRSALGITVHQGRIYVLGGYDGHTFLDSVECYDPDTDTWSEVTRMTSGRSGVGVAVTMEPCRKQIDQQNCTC
Chain of UniProt P97287 (152-308, looked up): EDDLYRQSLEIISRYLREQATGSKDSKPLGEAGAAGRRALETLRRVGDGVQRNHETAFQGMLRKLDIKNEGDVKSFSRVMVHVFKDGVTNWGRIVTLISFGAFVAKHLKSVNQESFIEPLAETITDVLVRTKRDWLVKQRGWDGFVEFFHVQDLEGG

SMILES = CC[C@H](C)[C@H](NC(=O)[C@H](CCC(=O)O)NC(=O)[C@H](CCCNC(=N)N)NC(=O)[C@H](C)NC(=O)[C@H](Cc1c[nH]c2ccccc12)NC(=O)[C@H](CCC(=O)O)NC(=O)[C@H](CCC(=O)O)NC(=O)[C@H](CCC(=O)O)NC(C)=O)C(=O)NCC(=O)N[C@@H](CC(C)(C)C)C(=O)N[C@@H](CCC(N)=O)C(=O)N[C@@H](CC(C)C)C(=O)N[C@@H](CCCNC(=N)N)C(=O)N[C@@H](CCCNC(=N)N)C(=O)N[C@@H](C)C(=O)N[C@@H](C)C(=O)N[C@@H](CC(=O)O)C(=O)N[C@@H](CC(=O)O)C(=O)N[C@@H](CC(C)C)C(=O)N[C@@H](CC(N)=O)C(=O)N[C@@H](C)C(=O)N[C@@H](CCC(N)=O)C(=O)N[C@@H](Cc1ccc(O)cc1)C(=O)N[C@@H](CCC(=O)O)C(=O)N[C@@H](CCCNC(=N)N)C(=O)N[C@@H](CCCNC(=N)N)C(=O)N[C@@H](CCCNC(=N)N)C(N)=O; target or system = Induced myeloid leukemia cell differentiation protein Mcl-1 homolog, residues 152-308 (Mus musculus, UniProt P97287); assay = binding, SPR; conditions = 0.2% DMSO; quantity = Kd; value = 0.00036 µM
SMILES = CC(=O)NC(Cc1ccc(Br)c(Cl)c1)C(=O)N[C@@H](C)C(=O)N1CCC[C@H]1C(=O)N1CCC[C@H]1C(=O)N[C@@H](CCC(=O)O)C(=O)N[C@@H](Cc1c[nH]cn1)C(=O)N[C@@H](CO)C(=O)N[C@H](C(=O)N[C@@H](C)C(N)=O)[C@@H](C)OP(=O)(O)O (stereo partly shown); target or system = PLK1 (Homo sapiens, UniProt P53350); assay = binding, microscale thermophoresis; quantity = Kd; value = no binding
SMILES = CC[C@H](C)[C@@H]1NC(=O)[C@H](Cc2c[nH]cn2)NC(=O)[C@H](CC(N)=O)NC(=O)[C@H](CO)NC(=O)[C@H](CCC(N)=O)NC(=O)[C@@H](NC(=O)CN)CSSC[C@@H]2NC(=O)CNC(=O)[C@H](C)NC(=O)[C@H](CC(C)C)NC(=O)[C@@H]3CSSC[C@@H](C(=O)NCC(=O)O)NC(=O)[C@H](Cc4ccccc4)NC(=O)CNC(=O)[C@H](CC(N)=O)NC(=O)[C@@H]4CCCN4C(=O)CNC(=O)[C@H](CSSC[C@H](NC(=O)[C@H](CCCNC(=N)N)NC(=O)[C@H](CC(N)=O)NC(=O)[C@H](Cc4c[nH]cn4)NC(=O)[C@H](CCCCN)NC(=O)[C@H](CC(C)C)NC1=O)C(=O)N[C@@H](CCCCN)C(=O)N[C@@H](CCC(N)=O)C(=O)N[C@@H](CC(=O)O)C(=O)N[C@@H](CO)C(=O)N[C@@H](CC(=O)O)C(=O)N3)NC(=O)[C@H](C(C)C)NC2=O; target or system = LRP6 E1 domain; assay = binding, SPR; conditions = pH 7.5; quantity = Kd; value = 0.00101 µM
SMILES = CC(C)C[C@H](NC(=O)[C@H](CCP(=O)(O)O)NC(=O)[C@@H](NC(=O)[C@@H](NC(=O)[C@H](CCCNC(=N)N)NC(=O)[C@H](CC(C)C)NC(=O)[C@H](CO)NC(=S)Nc1ccc2c(c1)C(=O)OC21c2ccc(O)cc2Oc2cc(O)ccc21)[C@@H](C)O)C(C)C)C(=O)NCC(=O)N[C@@H](C)C(=O)NCC(=O)N[C@@H](C)C(=O)N[C@@H](Cc1c[nH]c2ccccc12)C(=O)N[C@@H](CC(C)C)C(=O)N[C@H](C(=O)N1CCC[C@H]1C(=O)N[C@@H](CCCNC(=N)N)C(=O)O)C(C)C; target or system = SFN (Homo sapiens, UniProt P31947); assay = binding, fluorescence anisotropy; conditions = pH 7.5, FITC-labelled phosphopeptide titration; quantity = Kd; value = 69.1 µM
SMILES = CC(=O)N[C@@H](CCCNC(=N)N)C(=O)N[C@H](C(=O)N1CCC[C@H]1C(=O)N[C@@H](COP(=O)(O)O)C(=O)N[C@@H](CC(C)C)C(=O)N1CCC[C@H]1C(=O)NCC(=O)N1CCC[C@H]1C(c1ccccc1)c1ccccc1)[C@@H](C)O; target or system = YWHAZ; assay = isothermal titration calorimetry; conditions = second duplicate; quantity = Kd; value = 6.1 µM
SMILES = CC[C@H](C)[C@@H]1NC(=O)[C@@H]2CCCN2C(=O)[C@H](Cc2c[nH]c3ccccc23)NC(=O)[C@H](CO)NC(=O)[C@H](Cc2c[nH]c3ccccc23)NC(=O)[C@H](CC(N)=O)NC(=O)[C@H](CCCCN)NC(=O)[C@H](CCSC)NC(=O)[C@@H]2CSCCC(=O)N3CN(CN(C3)C(=O)CCSC[C@H](NC(=O)[C@H](C)N)C(=O)N3CCC[C@H]3C(=O)N[C@@H](Cc3ccccc3)C(=O)NCC(=O)N2)C(=O)CCSC[C@@H](C(=O)N[C@H](C(=O)N[C@@H](CC(N)=O)C(=O)N[C@@H](CCCCN)C(=O)N(C)CC(=O)N(C)CC(=O)N(C)CC(=O)N(C)CC(=O)N(C)CC(=O)N(C)CC(=O)N[C@@H](CCCCNC(=O)c2ccc(C(=O)O)c(-c3c4ccc(=O)cc-4oc4cc(O)ccc34)c2)C(N)=O)[C@@H](C)O)NC(=O)[C@H](Cc2c[nH]c3ccccc23)NC1=O; target or system = Cell adhesion molecule 1 (CADM1, Homo sapiens, UniProt Q9BY67); assay = fluorescence polarization; quantity = Kd; value = > 2 µM
SMILES = CC(=O)N[C@@H](CCCNC(=N)N)C(=O)N[C@H](C(=O)N1CCC[C@H]1C(=O)N[C@@H](COP(=O)(O)O)C(=O)N[C@@H](CC(C)C)C(=O)N1CCC[C@H]1C(=O)N[C@H](C)C(=O)N1CCC[C@H]1C(c1ccccc1)c1ccccc1)[C@@H](C)O; target or system = YWHAZ; assay = binding, ITC; quantity = Kd; value = 3.04 µM
SMILES = O=C(N[C@@H]1c2ccccc2C[C@H]1N1CCCC1)c1ccc(-c2ccnc3[nH]ccc23)nc1; target or system = PRKACB (Homo sapiens, UniProt P22694); assay = binding, competition with immobilised ligand; quantity = Kd; value = 0.0048 µM
SMILES = O=C1NC2(CC2)COc2ncc(F)cc2[C@H]2COCCN2c2ccn3ncc1c3n2; system = Sprague-Dawley rat, female, kidneys; conditions = oral, 10 mg/kg/day, 4 weeks; quantity = organ weight; value = 2.1 ± 0.194 g
SMILES = CC(C)C[C@H](NC(=O)[C@H](CCCNC(=N)N)NC(=O)[C@H](CO)NC(=O)[C@H](CC(N)=O)NC(=O)c1ccc2c(c1)C(=O)OC21c2ccc(N(C)C)cc2Oc2cc(N(C)C)ccc21)C(=O)NCC(=O)N[C@@H](CC(N)=O)C(=O)NCC(=O)N[C@H](C(=O)N[C@@H](CC(C)C)C(=O)N[C@@H](Cc1ccc(OP(=O)(O)O)cc1)C(=O)N[C@@H](C)C(=O)N[C@@H](CO)C(=O)N[C@H](C(=O)N[C@@H](CC(N)=O)C(=O)N1CCC[C@H]1C(=O)N[C@@H](CCC(=O)O)C(=O)N[C@@H](Cc1ccc(O)cc1)C(=O)N[C@@H](CC(=O)O)C(=O)O)C(C)C)C(C)C; target or system = Crk-like protein, SH2 domain (Homo sapiens, UniProt P46109); assay = binding; quantity = Kd; value = 1.86 µM
SMILES = CC1CC(=O)N[C@@H](CC(=O)O)C(=O)N2CC(F)C(F)[C@H]2C(=O)N[C@@H](CCC(=O)O)C(=O)N[C@@H]([C@@H](C)O)C(=O)NCC(=O)N[C@@H](CCC(=O)O)C(=O)N1 (stereo partly shown); target or system = KEAP1 (Homo sapiens, UniProt Q14145); assay = binding, MST; quantity = Kd; value = 0.0409 µM
SMILES = CC(C)C[C@@H]1NC(=O)CNC(=O)[C@H](Cc2c[nH]cn2)NC(=O)[C@H](C)NC(=O)[C@H](CO)NC(=O)[C@H](CCC(N)=O)NC(=O)[C@@H](NC(=O)CN)CSSC[C@@H]2NC(=O)CNC(=O)[C@H](C)NC(=O)[C@H](CC(C)C)NC(=O)[C@@H]3CSSC[C@@H](C(=O)NCC(=O)O)NC(=O)[C@H](Cc4ccccc4)NC(=O)CNC(=O)[C@H](CC(N)=O)NC(=O)[C@@H]4CCCN4C(=O)CNC(=O)[C@H](CSSC[C@H](NC(=O)[C@H](CCCNC(=N)N)NC(=O)[C@H](CC(N)=O)NC(=O)[C@H](Cc4c[nH]cn4)NC(=O)[C@H](CCCCN)NC1=O)C(=O)N[C@@H](CCCCN)C(=O)N[C@@H](CCC(N)=O)C(=O)N[C@@H](CC(=O)O)C(=O)N[C@@H](CO)C(=O)N[C@@H](CC(=O)O)C(=O)N3)NC(=O)[C@H](C(C)C)NC2=O; target or system = LRP6 E1 domain; assay = binding, SPR; conditions = pH 7.5; quantity = Kd; value = > 1 µM
SMILES = CC(C)C[C@H](NC(=O)[C@H](CCCCN)NC(=O)CNC(=O)[C@H](Cc1ccccc1)NC(=O)[C@H](CO)NC(=O)[C@H](Cc1c[nH]c2ccccc12)NC(=O)CNC(=O)[C@@H]1CCCN1C(=O)[C@@H](N)C(C)C)C(=O)N[C@@H](Cc1c[nH]cn1)C(=O)N[C@@H](C)C(=O)N1CCC[C@H]1C(=O)O; target or system = V-type immunoglobulin domain-containing suppressor of T-cell activation, IgV domain (VSIR, Homo sapiens, UniProt Q9H7M9); assay = binding, microscale thermophoresis; quantity = Kd; value = 3.09 µM
SMILES = CC(=O)NC1C(O)OC(CO)C(OC2OC(CO)C(OC3OC(CO)C(O)C(O)C3O)C(O)C2O)C1O (stereo not shown); target or system = sly (Streptococcus suis, UniProt Q55996, T481A); assay = binding; quantity = Kd; value = 4.59 µM
SMILES = CC(=O)N[C@@H](Cc1ccc(O)cc1)C(=O)N[C@@H](CC(N)=O)C(=O)N1CCC[C@H]1C(=O)N[C@@H](Cc1ccccc1)C(=O)N[C@@H](CCC(=O)O)C(=O)N[C@@H](CCC(=O)O)C(=O)NCC(=O)NCC(N)=O; target or system = EH domain-containing protein 1, EH domain (Homo sapiens, UniProt Q9H4M9); assay = peptide binding, ITC; conditions = 20 °C, 150 mM NaCl; quantity = Kd; value = 33.9 µM and 33.3 µM and 40 µM
SMILES = CC(C)C[C@H](NC(=O)CNC(=O)[C@H](C)NC(=O)[C@H](CC(=O)O)NC(=O)[C@H](CC(=O)O)NC(=O)[C@H](C)NC(=O)[C@@H]1CCCN1C(=O)[C@H](CCCCN)NC(=O)[C@H](C)NC(=O)[C@@H]1CCCN1C(=O)[C@@H]1CCCN1C(=O)[C@@H]1CCCN1C(=O)[C@H](CCC(=O)O)NC(=O)CN)C(=O)N[C@H](C(=O)O)C(C)C; target or system = F-box only protein 22 (Homo sapiens, UniProt Q8NEZ5); assay = binding, SPR; quantity = Kd; value = 68 µM
SMILES = CC(=O)NCCCC[C@H](NC(=O)[C@H](CCCNC(=N)N)NC(=O)[C@H](C)NC(=O)[C@@H](NC(=O)[C@H](CCC(N)=O)NC(=O)[C@H](CCCCN)NC(=O)[C@@H](NC(=O)[C@H](CCCNC(=N)N)NC(C)=O)[C@@H](C)O)[C@@H](C)O)C(=O)N[C@@H](CO)C(=O)N[C@H](C(=O)NCC(=O)NCC(=O)N[C@@H](CCCCN)C(=O)N[C@@H](C)C(=O)N1CCC[C@H]1C(N)=O)[C@@H](C)O; target or system = Protein AF-9 (Homo sapiens, UniProt P42568); assay = binding, ITC; conditions = pH 7.5; quantity = Kd; value = 4.3 µM
SMILES = CSCC[C@H](NC=O)C(=O)N[C@@H](CCCNC(=N)N)C(=O)N[C@H](C(=O)NCC(=O)N[C@@H](CC(N)=O)C(=O)N[C@@H](C)C(=O)N[C@@H](CC(N)=O)C(=O)NCC(=O)NCC(=O)N[C@@H](CCCCNC(=S)Nc1ccc2c(c1)C(=O)OC21c2ccc(O)cc2Oc2cc(O)ccc21)C(=O)O)[C@@H](C)O; target or system = Uncharacterized protein YejA (yejA, Escherichia coli, UniProt P33913, S476A/S494A); assay = binding, fluorescence polarisation; conditions = YejA variant S476A; quantity = Kd; value = 12.9 ± 0.54 µM
SMILES = COCC[C@@H](NC(=O)[C@H](C)NC(=O)[C@H](NC(=O)[C@H](NC(=O)[C@H](F)CC(C)(C)C)C(C)(C)O)[C@H](C)c1ccccc1)C(=O)N(C)Cc1ccccc1; target or system = G3BP1 (Homo sapiens, UniProt Q13283); assay = binding, SPR; quantity = Kd; value = 75.5 µM

Some of these lines once more:
SMILES = CC(C)C[C@@H]1NC(=O)CNC(=O)[C@H](Cc2c[nH]cn2)NC(=O)[C@H](C)NC(=O)[C@H](CO)NC(=O)[C@H](CCC(N)=O)NC(=O)[C@@H](NC(=O)CN)CSSC[C@@H]2NC(=O)CNC(=O)[C@H](C)NC(=O)[C@H](CC(C)C)NC(=O)[C@@H]3CSSC[C@@H](C(=O)NCC(=O)O)NC(=O)[C@H](Cc4ccccc4)NC(=O)CNC(=O)[C@H](CC(N)=O)NC(=O)[C@@H]4CCCN4C(=O)CNC(=O)[C@H](CSSC[C@H](NC(=O)[C@H](CCCNC(=N)N)NC(=O)[C@H](CC(N)=O)NC(=O)[C@H](Cc4c[nH]cn4)NC(=O)[C@H](CCCCN)NC1=O)C(=O)N[C@@H](CCCCN)C(=O)N[C@@H](CCC(N)=O)C(=O)N[C@@H](CC(=O)O)C(=O)N[C@@H](CO)C(=O)N[C@@H](CC(=O)O)C(=O)N3)NC(=O)[C@H](C(C)C)NC2=O; target or system = LRP6 E1 domain; assay = binding, SPR; conditions = pH 7.5; quantity = Kd; value = > 1 µM
